{"data": "Results collected from several papers", "note": "Every numbered part comes from another study and shows a few of its results, in no order."}
{"data": "Set 1", "organism": "VSVΔG with SARS-CoV-2 spike", "read-out": "pseudovirus infection", "strain": "Wuhan variant", "tested at": "10 µM"}
{"SMILES": "c1ccc(-c2cnc3ccccc3c2)c(OCCn2ccnc2)c1", "inhibition": "37%"}
{"SMILES": "N#CC(C#N)=NNc1ccc2c(c1)OCCO2", "inhibition": "45%"}
{"SMILES": "c1ccc(Nc2nccc(-c3ccncc3)n2)cc1", "inhibition": "59%"}
{"SMILES": "N#Cc1c(Cl)c(Cl)c(Cl)c(Cl)c1C#N", "inhibition": "60%"}
{"SMILES": "CCc1ccc2nc(C)c(CN3CCCC3)c(O)c2c1", "inhibition": "35%"}
{"SMILES": "CC(C)CC1(C)NC(=O)N(Cc2cc([N+](=O)[O-])cc3c2OCOC3)C1=O (stereo not drawn)", "inhibition": "42%"}
{"data": "Other studies, line by line", "rep nsp14": "Replicase polyprotein 1ab, nsp14 (rep, Severe acute respiratory syndrome coronavirus 2, UniProt P0DTD1)", "rep papain-like protease": "Replicase polyprotein 1ab, papain-like protease (rep, Severe acute respiratory syndrome coronavirus 2, UniProt P0DTD1)", "rep nsp12 RdRp": "Replicase polyprotein 1ab, nsp12 RdRp (rep, Severe acute respiratory syndrome coronavirus 2, UniProt P0DTD1)"}
{"Compound": "O=C(NC1CCN(c2ncnc3[nH]cnc23)CC1)c1cccc(NS(=O)(=O)c2cccnc2)c1", "target": "rep nsp14", "assay": "enzyme activity", "test system": "SARS-CoV-2", "setting": "concentration not given", "quantity": "inhibition", "value": "27.8%"}
{"Compound": "O=C(Cc1ccccc1)Nc1nnc(CCSCCc2nnc(NC(=O)Cc3ccccc3)s2)s1", "target": "rep papain-like protease", "setting": "concentration not given, C111S mutant", "how to read": "baseline: positive control", "quantity": "activity", "value": "25.8%"}
{"Compound": "C[C@@H]1O[C@@H](OC[C@H]2O[C@@H](Oc3cc(O)c4c(c3)O[C@H](c3ccc(O)cc3)CC4=O)[C@H](O)[C@@H](O)[C@@H]2O)[C@H](O)[C@H](O)[C@H]1O", "target": "rep nsp12 RdRp", "assay": "binding, biolayer interferometry", "setting": "50 µM", "quantity": "BLI response", "value": "0.06 nm"}
{"Compound": "O=C(NC1CCN(c2ncnc3[nH]cnc23)CC1)c1cccc(S(=O)(=O)N2CCC2)c1", "target": "rep nsp14", "assay": "NSP14 enzyme activity, inhibitor", "setting": "0.04883 µM", "quantity": "inhibition", "value": "14.3%"}
{"Compound": "COC(=O)N[C@H](C(=O)N[C@@H](Cc1ccccc1)[C@@H](O)CN(Cc1ccc(-c2ccccn2)cc1)NC(=O)[C@@H](NC(=O)OC)C(C)(C)C)C(C)(C)C", "target": "rep papain-like protease", "setting": "concentration not given, C111S mutant", "how to read": "baseline: positive control", "quantity": "activity", "value": "29.4%"}
{"Compound": "C[C@@H]1O[C@@H](O[C@@H]2[C@@H](O)[C@H](OCCc3ccc(O)c(O)c3)O[C@H](CO)[C@H]2OC(=O)/C=C/c2ccc(O)c(O)c2)[C@H](O)[C@H](O)[C@H]1O", "target": "rep nsp12 RdRp", "assay": "binding, biolayer interferometry", "setting": "50 µM", "quantity": "BLI response", "value": "0.02 nm"}
{"note": "A few entries again (set 1):"}
{"SMILES": "c1ccc(Nc2nccc(-c3ccncc3)n2)cc1", "inhibition": "59%"}
{"SMILES": "CC(C)CC1(C)NC(=O)N(Cc2cc([N+](=O)[O-])cc3c2OCOC3)C1=O (stereo not drawn)", "inhibition": "42%"}
